Assay results of several laboratories.
Each line is one published result; not all experiments were run side by side.
HLA class I histocompatibility antigen, A alpha chain allele A*02:01: HLA class I histocompatibility antigen, A alpha chain, allele A*02:01 (Homo sapiens, UniProt P04439)
T1: PSMG1/PSMG2 heterodimer (Homo sapiens); chain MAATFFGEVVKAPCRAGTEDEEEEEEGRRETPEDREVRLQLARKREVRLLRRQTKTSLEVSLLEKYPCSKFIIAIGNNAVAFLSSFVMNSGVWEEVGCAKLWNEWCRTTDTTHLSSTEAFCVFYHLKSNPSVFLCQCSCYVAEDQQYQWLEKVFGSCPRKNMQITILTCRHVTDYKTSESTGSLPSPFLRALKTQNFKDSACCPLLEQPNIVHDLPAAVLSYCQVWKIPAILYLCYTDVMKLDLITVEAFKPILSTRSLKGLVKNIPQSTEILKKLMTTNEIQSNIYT; chain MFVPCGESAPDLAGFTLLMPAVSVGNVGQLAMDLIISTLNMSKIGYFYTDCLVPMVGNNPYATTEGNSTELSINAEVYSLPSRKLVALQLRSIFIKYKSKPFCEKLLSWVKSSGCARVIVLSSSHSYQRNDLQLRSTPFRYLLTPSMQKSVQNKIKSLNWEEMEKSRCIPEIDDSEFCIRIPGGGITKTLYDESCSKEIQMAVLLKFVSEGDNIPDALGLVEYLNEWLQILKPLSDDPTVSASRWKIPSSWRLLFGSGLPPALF
B1: BECN1 1-171 (Homo sapiens, UniProt A0A024R1X5); sequence looked up; chain MEGSKTSNNSTMQVSFVCQRCSQPLKLDTSFKILDRVTIQELTAPLLTTAQAKPGETQEEETNSGEEPFIETPRQDGVSRRFIPPARMMSTESANSFTLIGEASDGGTMENLSRRLKVTGDLFDIMSGQTDVDHPLCEECTDTLLDQLDTQLNVTENECQNYKRCLEILEQ
B2: FERMT2 1-105 (Homo sapiens, UniProt Q96AC1); sequence looked up; chain MALDGIRMPDGCYADGTWELSVHVTDLNRDVTLRVTGEVHIGGVMLKLVEKLDVKKDWSDHALWWEKKRTWLLKTHWTLDKYGIQADAKLQFTPQHKLLRLQLPN
B3: KAT7 364-473 (Homo sapiens, UniProt O95251); sequence looked up; chain RLYMCEFCLKYMKSQTILRRHMAKCVWKHPPGDEIYRKGSISVFEVDGKKNKIYCQNLCLLAKLFLDHKTLYYDVEPFLFYVMTEADNTGCHLIGYFSKEKNSFLNYNVS
B4: lpxC 1-305 (Escherichia coli, UniProt P0A725); chain MIKQRTLKRIVQATGVGLHTGKKVTLTLRPAPANTGVIYRRTDLNPPVDFPADAKSVRDTMLCTCLVNEHDVRISTVEHLNAALAGLGIDNIVIEVNAPEIPIMDGSAAPFVYLLLDAGIDELNCAKKFVRIKETVRVEDGDKWAEFKPYNGFSLDFTIDFNHPAIDSSNQRYAMNFSADAFMRQISRARTFGFMRDIEYLQSRGLCLGGSFDCAIVVDDYRVLNEDGLRFEDEFVRHKMLDAIGDLFMCGHNIIGAFTAYKSGHALNNKLLQAVLAKQEAWEYVTFQDDAELPLAFKAPSAVLA
B5: POL30 1-258 K127G (Saccharomyces cerevisiae, UniProt P15873); chain MLEAKFEEASLFKRIIDGFKDCVQLVNFQCKEDGIIAQAVDDSRVLLVSLEIGVEAFQEYRCDHPVTLGMDLTSLSKILRCGNNTDTLTLIADNTPDSIILLFEDTKKDRIAEYSLKLMDIDADFLGIEELQYDSTLSLPSSEFSKIVRDLSQLSDSINIMITKETIKFVADGDIGSGSVIIKPFVDMEHPETSIKLEMDQPVDLTFGAKYLLDIIKGSSLSDRVGIRLSSEAPALFQFDLKSGFLQFFLAPKFNDEE
B6: rplK K39A (Thermus thermophilus, UniProt Q5SLP6); sequence looked up; chain MKKVVAVVKLQLPAGKATPAPPVGPALGQHGANIMEFVAAFNAATANMGDAIVPVEITIYADRSFTFVTKTPPASYLIRKAAGLEKGAHKPGREKVGRITWEQVLEIAKQKMPDLNTTDLEAAARMIAGSARSMGVEVVGAPEVKDA
B7: AIR2 1-223 (Saccharomyces cerevisiae, UniProt Q12476); sequence looked up; chain MEKNTAPFVVDTAPTTPPDKLVAPSIEEVNSNPNELRALRGQGRYFGVSDDDKDAIKEAAPKCNNCSQRGHLKKDCPHIICSYCGATDDHYSRHCPKAIQCSKCDEVGHYRSQCPHKWKKVQCTLCKSKKHSKERCPSIWRAYILVDDNEKAKPKVLPFHTIYCYNCGGKGHFGDDCKEKRSSRVPNEDGSAFTGSNLSVELKQEYYRHMNRNSDENEDYQFS
B8: MDM4 23-150 (Homo sapiens, UniProt O15151); sequence looked up; chain QINQVRPKLPLLKILHAAGAQGEMFTVKEVMHYLGQYIMVKQLYDQQEQHMVYCGGDLLGELLGRQSFSVKDPSPLYDMLRKNLVTLATATTDAAQTLALAQDHSMDIPSQDQLKQSAEESSTSRKRT
B9: PRE1 (Saccharomyces cerevisiae, UniProt P22141); sequence looked up; chain MDIILGIRVQDSVILASSKAVTRGISVLKDSDDKTRQLSPHTLMSFAGEAGDTVQFAEYIQANIQLYSIREDYELSPQAVSSFVRQELAKSIRSRRPYQVNVLIGGYDKKKNKPELYQIDYLGTKVELPYGAHGYSGFYTFSLLDHHYRPDMTTEEGLDLLKLCVQELEKRMPMDFKGVIVKIVDKDGIRQVDDFQAQ
B10: EFR3A 721-791 F755A (Homo sapiens, UniProt Q14156); chain SNTEEITFEALKKAIDTSGMEEQEKEKRRLVIEKAQKAPFEEIAAQCESKANLLHDRLAQILELTIRPPPS
B11: TIM9 1-87 (Saccharomyces cerevisiae, UniProt O74700); chain MDALNSKEQQEFQKVVEQKQMKDFMRLYSNLVERCFTDCVNDFTTSKLTNKEQTCIMKCSEKFLKHSERVGQRFQEQNAALGQGLGR
B12: PSMA3 (Homo sapiens, UniProt P25788); chain MSSIGTGYDLSASTFSPDGRVFQVEYAMKAVENSSTAIGIRCKDGVVFGVEKLVLSKLYEEGSNKRLFNVDRHVGMAVAGLLADARSLADIAREEASNFRSNFGYNIPLKHLADRVAMYVHAYTLYSAVRPFGCSFMLGSYSVNDGAQLYMIDPSGVSYGYWGCAIGKARQAAKTEIEKLQMKEMTCRDIVKEVAKIIYIVHDEVKDKAFELELSWVGELTNGRHEIVPKDIREEAEKYAKESLKEEDESDDDNM
B13: PRIM2 1-265 (Homo sapiens, UniProt P49643); sequence looked up; chain MEFSGRKWRKLRLAGDQRNASYPHCLQFYLQPPSENISLIEFENLAIDRVKLLKSVENLGVSYVKGTEQYQSKLESELRKLKFSYRENLEDEYEPRRRDHISHFILRLAYCQSEELRRWFIQQEMDLLRFRFSILPKDKIQDFLKDSQLQFEAISDEEKTLREQEIVASSPSLSGLKLGFESIYKIPFADALDLFRGRKVYLEDGFAYVPLKDIVAIILNEFRAKLSKALALTARSLPAVQSDERLQPLLNHLSHSYTGQDYSTQ
B14: NUP60 200-318 (Saccharomyces cerevisiae, UniProt P39705); sequence looked up; chain SMNTTLGSIGSRKYSFNYSSLPSPYKTTVYRYSAAKKIPDTYTANTSAQSIASAKSVRSGVSKSAPSKKISNTAAALVSLLDENDSKKNNAASELANPYSSYVSQIRKHKRVSPNAAPR
UniProt Q8BGV3, sequence (whole entry, looked up): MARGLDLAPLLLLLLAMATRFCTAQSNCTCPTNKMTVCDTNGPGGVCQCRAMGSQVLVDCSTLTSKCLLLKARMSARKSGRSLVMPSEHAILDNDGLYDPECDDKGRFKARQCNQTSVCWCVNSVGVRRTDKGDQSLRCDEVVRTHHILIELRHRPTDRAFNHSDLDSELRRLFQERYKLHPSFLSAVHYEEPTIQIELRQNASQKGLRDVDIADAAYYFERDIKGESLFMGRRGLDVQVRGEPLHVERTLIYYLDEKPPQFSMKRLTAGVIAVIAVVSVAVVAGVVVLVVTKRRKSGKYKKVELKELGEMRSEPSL
UniProt P49642, sequence (whole entry, looked up): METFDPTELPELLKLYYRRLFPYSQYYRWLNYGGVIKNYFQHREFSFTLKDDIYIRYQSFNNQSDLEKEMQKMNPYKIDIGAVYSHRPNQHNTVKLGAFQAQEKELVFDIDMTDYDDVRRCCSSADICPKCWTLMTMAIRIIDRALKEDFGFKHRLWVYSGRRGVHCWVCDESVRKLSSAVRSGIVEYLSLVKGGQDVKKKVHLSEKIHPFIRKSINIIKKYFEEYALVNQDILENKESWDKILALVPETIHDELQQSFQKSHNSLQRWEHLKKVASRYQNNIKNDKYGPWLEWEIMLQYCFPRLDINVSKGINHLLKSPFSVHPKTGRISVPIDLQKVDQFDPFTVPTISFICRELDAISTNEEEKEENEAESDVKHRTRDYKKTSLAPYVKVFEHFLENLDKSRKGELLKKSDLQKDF
UniProt Q6P2E9, sequence (whole entry, looked up): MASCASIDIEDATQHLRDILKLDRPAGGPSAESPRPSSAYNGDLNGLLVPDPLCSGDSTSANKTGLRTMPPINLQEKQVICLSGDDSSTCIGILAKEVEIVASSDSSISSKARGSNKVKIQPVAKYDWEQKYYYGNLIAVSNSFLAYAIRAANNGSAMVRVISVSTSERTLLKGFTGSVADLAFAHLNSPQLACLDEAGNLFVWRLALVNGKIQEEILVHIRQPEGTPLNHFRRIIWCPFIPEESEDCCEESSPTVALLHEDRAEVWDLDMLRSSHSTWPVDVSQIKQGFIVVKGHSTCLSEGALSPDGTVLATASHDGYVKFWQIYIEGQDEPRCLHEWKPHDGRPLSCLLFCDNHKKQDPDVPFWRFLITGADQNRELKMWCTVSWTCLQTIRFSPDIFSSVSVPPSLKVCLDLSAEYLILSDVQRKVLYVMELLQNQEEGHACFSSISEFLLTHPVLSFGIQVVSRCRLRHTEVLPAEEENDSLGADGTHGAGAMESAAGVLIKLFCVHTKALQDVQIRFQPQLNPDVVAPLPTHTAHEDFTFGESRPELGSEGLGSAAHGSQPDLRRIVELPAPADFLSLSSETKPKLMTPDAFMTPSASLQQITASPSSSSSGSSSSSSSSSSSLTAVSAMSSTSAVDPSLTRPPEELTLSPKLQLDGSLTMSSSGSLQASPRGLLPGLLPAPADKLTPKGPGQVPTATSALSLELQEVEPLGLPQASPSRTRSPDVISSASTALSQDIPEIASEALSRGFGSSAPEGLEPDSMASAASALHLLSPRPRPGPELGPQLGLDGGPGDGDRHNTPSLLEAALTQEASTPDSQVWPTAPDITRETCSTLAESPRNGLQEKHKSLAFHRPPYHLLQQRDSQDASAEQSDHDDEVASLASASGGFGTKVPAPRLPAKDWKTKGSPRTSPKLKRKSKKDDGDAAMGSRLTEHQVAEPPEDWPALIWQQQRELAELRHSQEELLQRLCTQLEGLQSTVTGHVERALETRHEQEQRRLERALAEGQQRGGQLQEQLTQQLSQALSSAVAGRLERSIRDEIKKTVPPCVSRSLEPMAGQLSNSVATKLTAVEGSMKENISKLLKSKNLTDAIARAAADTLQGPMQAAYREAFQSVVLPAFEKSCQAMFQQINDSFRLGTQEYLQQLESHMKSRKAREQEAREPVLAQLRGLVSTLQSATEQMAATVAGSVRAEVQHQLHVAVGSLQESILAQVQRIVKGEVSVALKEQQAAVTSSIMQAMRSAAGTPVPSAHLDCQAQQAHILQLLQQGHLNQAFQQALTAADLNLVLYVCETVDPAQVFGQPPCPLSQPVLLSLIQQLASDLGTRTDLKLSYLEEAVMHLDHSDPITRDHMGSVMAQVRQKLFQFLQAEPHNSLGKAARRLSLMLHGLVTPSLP
UniProt P43583, sequence (whole entry, looked up): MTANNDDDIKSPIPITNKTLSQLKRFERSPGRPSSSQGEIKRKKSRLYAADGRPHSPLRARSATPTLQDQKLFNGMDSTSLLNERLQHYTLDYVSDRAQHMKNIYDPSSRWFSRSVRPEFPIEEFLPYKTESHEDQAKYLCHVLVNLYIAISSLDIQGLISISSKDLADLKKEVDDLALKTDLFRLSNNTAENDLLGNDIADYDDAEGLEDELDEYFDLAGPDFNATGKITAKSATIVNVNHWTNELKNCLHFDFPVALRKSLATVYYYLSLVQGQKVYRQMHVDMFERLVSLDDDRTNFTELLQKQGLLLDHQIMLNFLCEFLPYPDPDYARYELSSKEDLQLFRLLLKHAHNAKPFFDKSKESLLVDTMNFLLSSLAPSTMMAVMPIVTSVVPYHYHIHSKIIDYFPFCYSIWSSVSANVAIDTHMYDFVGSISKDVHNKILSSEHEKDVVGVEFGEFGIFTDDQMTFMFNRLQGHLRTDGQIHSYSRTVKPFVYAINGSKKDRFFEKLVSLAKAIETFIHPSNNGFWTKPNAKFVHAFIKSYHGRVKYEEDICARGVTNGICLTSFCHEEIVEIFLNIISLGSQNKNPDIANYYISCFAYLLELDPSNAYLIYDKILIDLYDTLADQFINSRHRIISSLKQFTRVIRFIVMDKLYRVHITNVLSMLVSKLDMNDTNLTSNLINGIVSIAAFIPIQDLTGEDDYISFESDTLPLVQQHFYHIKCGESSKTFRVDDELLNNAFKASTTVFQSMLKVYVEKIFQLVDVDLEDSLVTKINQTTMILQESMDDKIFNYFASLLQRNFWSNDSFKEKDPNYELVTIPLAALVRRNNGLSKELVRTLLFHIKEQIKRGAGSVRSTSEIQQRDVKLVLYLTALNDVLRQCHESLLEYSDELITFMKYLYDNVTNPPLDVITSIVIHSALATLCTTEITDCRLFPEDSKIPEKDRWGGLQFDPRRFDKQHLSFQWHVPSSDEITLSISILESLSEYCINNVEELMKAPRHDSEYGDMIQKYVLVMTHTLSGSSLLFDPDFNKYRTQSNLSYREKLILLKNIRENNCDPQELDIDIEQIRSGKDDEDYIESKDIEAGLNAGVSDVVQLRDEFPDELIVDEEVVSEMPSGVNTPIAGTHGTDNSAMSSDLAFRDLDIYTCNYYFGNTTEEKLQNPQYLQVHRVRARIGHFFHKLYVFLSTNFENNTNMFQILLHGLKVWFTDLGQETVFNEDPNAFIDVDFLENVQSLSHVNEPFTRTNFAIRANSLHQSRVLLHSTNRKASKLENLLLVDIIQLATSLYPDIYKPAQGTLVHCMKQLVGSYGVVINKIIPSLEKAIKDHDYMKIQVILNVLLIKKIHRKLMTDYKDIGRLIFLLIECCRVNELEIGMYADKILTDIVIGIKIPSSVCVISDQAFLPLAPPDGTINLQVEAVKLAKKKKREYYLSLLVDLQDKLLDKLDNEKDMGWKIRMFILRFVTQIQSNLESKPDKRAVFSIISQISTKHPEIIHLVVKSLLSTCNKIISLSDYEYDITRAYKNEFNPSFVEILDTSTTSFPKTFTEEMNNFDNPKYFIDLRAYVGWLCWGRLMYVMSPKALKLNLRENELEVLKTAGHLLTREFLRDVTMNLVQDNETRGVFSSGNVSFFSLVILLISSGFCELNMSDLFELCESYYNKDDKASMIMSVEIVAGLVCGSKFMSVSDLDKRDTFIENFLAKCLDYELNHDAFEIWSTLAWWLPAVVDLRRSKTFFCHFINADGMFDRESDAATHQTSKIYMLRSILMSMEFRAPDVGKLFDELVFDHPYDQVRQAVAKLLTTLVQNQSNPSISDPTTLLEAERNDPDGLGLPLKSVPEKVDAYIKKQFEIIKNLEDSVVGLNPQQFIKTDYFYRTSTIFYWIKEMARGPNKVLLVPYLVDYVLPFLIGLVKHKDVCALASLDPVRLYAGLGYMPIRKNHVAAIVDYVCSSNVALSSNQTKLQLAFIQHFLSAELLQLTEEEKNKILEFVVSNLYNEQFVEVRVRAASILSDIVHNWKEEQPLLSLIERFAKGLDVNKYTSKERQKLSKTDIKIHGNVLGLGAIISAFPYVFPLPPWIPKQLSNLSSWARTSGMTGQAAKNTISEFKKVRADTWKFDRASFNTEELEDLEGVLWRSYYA
UniProt O95210, sequence (whole entry, looked up): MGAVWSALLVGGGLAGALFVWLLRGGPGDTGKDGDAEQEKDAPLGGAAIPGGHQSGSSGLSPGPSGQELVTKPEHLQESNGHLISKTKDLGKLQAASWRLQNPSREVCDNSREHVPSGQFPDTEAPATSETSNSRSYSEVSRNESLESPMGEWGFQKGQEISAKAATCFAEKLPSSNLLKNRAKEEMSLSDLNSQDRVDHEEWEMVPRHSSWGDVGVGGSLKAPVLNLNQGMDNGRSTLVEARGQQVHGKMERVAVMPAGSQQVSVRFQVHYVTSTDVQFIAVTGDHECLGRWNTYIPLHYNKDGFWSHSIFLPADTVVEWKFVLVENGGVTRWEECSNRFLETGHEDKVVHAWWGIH
UniProt O95166, sequence (whole entry, looked up): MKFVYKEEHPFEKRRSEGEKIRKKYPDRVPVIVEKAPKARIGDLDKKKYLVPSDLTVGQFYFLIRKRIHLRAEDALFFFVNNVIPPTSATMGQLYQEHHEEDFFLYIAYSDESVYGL
UniProt P87108, sequence (whole entry, looked up): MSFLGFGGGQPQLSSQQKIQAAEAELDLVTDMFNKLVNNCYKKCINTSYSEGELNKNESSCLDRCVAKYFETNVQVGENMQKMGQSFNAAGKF

B1 (BECN1 1-171) — binding (BCL2L1 1-208 N52D/N66D (Homo sapiens, UniProt Q07817-1); pull-down): binds
B2 (FERMT2 1-105) — binding (PXN (Homo sapiens, UniProt P49023-3); NMR titration): binds
HEEWEMVPRHS (STBD1 200-210 (Homo sapiens, UniProt O95210)) — binding (GABARAP (Homo sapiens, UniProt O95166); SEC): binds
ENEEDILVVTTQG (CALCOCO2 128-140 (Homo sapiens); N-terminal FITC) — binding (RB1CC1 1490-1594 (Homo sapiens, UniProt Q8TDY2); fluorescence polarisation; peptide): binds
B3 (KAT7 364-473) — binding (HDAC2 (Homo sapiens, UniProt Q92769); pull-down): binds
MNQRPILTII — HLA class I surface increase (HLA class I histocompatibility antigen, A alpha chain allele A*02:01; MHC class I stabilisation, flow cytometry; peptide, TAP2-knockout TISI monoallelic cells; 25 µM, 18 h, 37 °C, added: β2-microglobulin 3 µg/mL; baseline: DMSO): 2.3%
AGER fragment (Homo sapiens) (sequence not shown) — binding (Histone H3.1 (Homo sapiens, UniProt P68431); pull-down): binds
PRKCQ (Homo sapiens, UniProt Q04759) — binding (PTK2 (Homo sapiens, UniProt Q05397); pull-down): binds
B4 (lpxC 1-305) — binding (lapB 21-389 A376P (Escherichia coli, UniProt P0AB58); pull-down): binds
B5 (POL30 1-258 K127G) — binding (ECO1 (Saccharomyces cerevisiae, UniProt P43605); pull-down): binds
sacituzumab — Kd (Tumor-associated calcium signal transducer 2 (Tacstd2, Mus musculus, UniProt Q8BGV3); binding, bio-layer interferometry): no binding
B6 (rplK K39A) — binding (prmA (Thermus thermophilus, UniProt Q84BQ9); X-ray crystallography; complex, K39A mutant, added: sinefungin 1 mM): binds
B7 (AIR2 1-223) — binding (PAP2 D236A/D238A (Saccharomyces cerevisiae, UniProt P53632); HDX-MS): binds
B8 (MDM4 23-150) — binding (TP53 (Homo sapiens, UniProt P04637); ELISA): binds
GDYSKRVYQGVRVKHTVKDLLAEKRSGQTSNSRLNGSVSSS (POU2AF2 6-46 (Homo sapiens, UniProt Q8IXP5); sequence looked up) — binding (POU2F3 183-341 (Homo sapiens, UniProt Q9UKI9-1); crystal structure): binds
RRRRKRVNTKRSSRAFRAHLRAPL (DRD2 217-240 (Homo sapiens, UniProt P14416)) — binding (EPB41L2 939-1005 E1004I (Homo sapiens, UniProt O43491); ITC): binds
B9 (PRE1) — binding (BLM10 (Saccharomyces cerevisiae, UniProt P43583); cryo-EM particle classification): binds
B10 (EFR3A 721-791 F755A) — binding (TTC7B/FAM126A FAM126A 1-308 (Homo sapiens); BLI): binds
KIGGFGLATV — HLA class I surface increase (HLA class I histocompatibility antigen, A alpha chain allele A*02:01; MHC class I stabilisation, flow cytometry; peptide, TAP2-knockout TISI monoallelic cells; 25 µM, 18 h, 37 °C, added: β2-microglobulin 3 µg/mL; baseline: DMSO): 42.6%
B11 (TIM9 1-87) — binding (TIM10 (Saccharomyces cerevisiae, UniProt P87108); SEC): binds
B12 (PSMA3) — binding (T1, PSMG1/PSMG2 heterodimer (Homo sapiens); cryo-EM): binds
B13 (PRIM2 1-265) — binding (PRIM1 (Homo sapiens, UniProt P49642); SEC-SAXS): binds
KPPKKRCLLAPRWDYPEGTP (NBDY 22-41 (Homo sapiens, UniProt A0A0U1RRE5); sequence looked up) — binding (EDC4 974-1401 (Homo sapiens, UniProt Q6P2E9); pull-down): binds
PRI2 (Saccharomyces cerevisiae, UniProt P20457) — binding (POL1 (Saccharomyces cerevisiae, UniProt P13382); mass photometry): binds
GSGAGKESYV — binding intensity (human MAGI1-3/6 PDZ construct (MBP fusion); automated holdup; peptide, purified PDZ protein; concentration not given, unit not given; baseline: biotin control resin, higher = stronger binding): 0.647
B14 (NUP60 200-318) — binding (NUP85/SEH1 Nup85 1-564 (Saccharomyces cerevisiae); pull-down): binds
TF (Homo sapiens, UniProt P02787) — cross-linked residues (KRT8 (Homo sapiens, UniProt P05787); cross-linking MS; added: DSSO): K215 to K464
QDEKVKESYV — binding intensity (human SCRIB PDZ3-4 tandem (MBP fusion); automated holdup; peptide, crude extract; concentration not given, uncorrected, unit not given; baseline: biotin control resin, higher = stronger binding): 0.72

For quick reference, copied from above:
HEEWEMVPRHS (STBD1 200-210 (Homo sapiens, UniProt O95210)) — binding (GABARAP (Homo sapiens, UniProt O95166); SEC): binds
ENEEDILVVTTQG (CALCOCO2 128-140 (Homo sapiens); N-terminal FITC) — binding (RB1CC1 1490-1594 (Homo sapiens, UniProt Q8TDY2); fluorescence polarisation; peptide): binds
B3 (KAT7 364-473) — binding (HDAC2 (Homo sapiens, UniProt Q92769); pull-down): binds
MNQRPILTII — HLA class I surface increase (HLA class I histocompatibility antigen, A alpha chain allele A*02:01; MHC class I stabilisation, flow cytometry; peptide, TAP2-knockout TISI monoallelic cells; 25 µM, 18 h, 37 °C, added: β2-microglobulin 3 µg/mL; baseline: DMSO): 2.3%
